Results of several laboratories.
Compare with care: the assays were run in different laboratories. Numbers after ± are the reported error. Converted amounts (≈) assume the structure as drawn.
UniProt O00141, sequence (whole entry, unmodified, looked up): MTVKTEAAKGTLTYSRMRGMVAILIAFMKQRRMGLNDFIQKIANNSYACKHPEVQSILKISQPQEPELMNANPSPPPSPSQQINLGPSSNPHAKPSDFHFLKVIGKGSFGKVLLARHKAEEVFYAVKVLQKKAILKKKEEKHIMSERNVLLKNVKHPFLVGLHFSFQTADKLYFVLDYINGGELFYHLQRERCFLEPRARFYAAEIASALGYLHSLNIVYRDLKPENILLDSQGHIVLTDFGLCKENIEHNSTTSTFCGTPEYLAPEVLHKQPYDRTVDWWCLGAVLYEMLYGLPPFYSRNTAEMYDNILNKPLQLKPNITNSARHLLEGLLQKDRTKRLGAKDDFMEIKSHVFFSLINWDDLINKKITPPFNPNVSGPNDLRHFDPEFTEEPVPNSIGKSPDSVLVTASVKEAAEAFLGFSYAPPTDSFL

SMILES | target or system | test | test system | conditions | quantity | result
O=C(Nc1cc(-c2ccc(Cl)cc2)[nH]n1)C1CCCCC1 | SGK1 (Homo sapiens, UniProt O00141, S422D) | enzyme activity, Dundee kinase panel |  | 10 µM | remaining activity | 86%
COc1cc(-c2nc3ccccc3c(=O)n2Nc2ccc([N+](=O)[O-])cc2[N+](=O)[O-])ccc1OCc1cn(CC(=O)Nc2cccc(Cl)c2)nn1 | mushroom tyrosinase | inhibitor, colorimetric |  | added: L-DOPA substrate | IC50 | 37.2 ± 1.89 µM
CCOc1c([C@H](C)n2nc(C)c3c(N)ncnc32)cc(Cl)c(F)c1[C@@H]1CNC(=O)C1 |  |  | human patients, Hodgkin lymphoma, plasma | oral, 30 mg, day 15, monotherapy, geometric mean | half-life | 9.9 h
Cc1ccc(N=Nc2c(N)nn3c(-c4ccc(Cl)cc4Cl)cc(-c4ccc(OCc5ccccc5)cc4)nc23)cc1 | Escherichia coli |  | ATCC 25955 |  | MIC | 15.6 µg/mL (≈ 26.9 µM)
O=C(NCc1ccccc1)c1cn(Cc2ccc(C(F)(F)F)cc2)c2ccc(Oc3ccccc3)cc2c1=O | MDA-MB-231/LM2-4 | cytotoxicity |  | 10% FBS | CC50 | 5.52 µM
COc1cc(/C=N/NC(=S)N/N=C/c2ccc(F)cc2)ccc1Oc1ccnc2cc(Cl)ccc12 | human lysosomal acid alpha-glucosidase | inhibitor |  | added: pNPG substrate | IC50 | 9.6 ± 0.22 µg/mL
COc1cc([N+](=O)[O-])ccc1NC(=O)Cn1cc(COc2ccc(-c3nc4ccccc4c(=O)n3Nc3ccc([N+](=O)[O-])cc3[N+](=O)[O-])cc2OC)nn1 | mushroom tyrosinase | enzyme activity |  | 40 µM, added: L-DOPA | inhibition | 33.5 ± 1.91%
COc1ccc(N=Nc2c(N)nn3c(-c4ccc(C)cc4)cc(-c4ccc(OCc5ccccc5)cc4)nc23)cc1 | Enterobacter cloacae |  | ATCC 23355 |  | MBC/MIC ratio | 3.9
COc1cc(/C=N/NC(=S)NN=Cc2ccc([N+](=O)[O-])o2)ccc1Oc1ccnc2cc(Cl)ccc12 | AKR1B1 (Homo sapiens, UniProt P15121) | Lineweaver-Burk kinetics |  | 3.30 µg (IC40) | Km | 3.95 mM

For quick reference, copied from above:
SMILES | target or system | test | test system | conditions | quantity | result
O=C(Nc1cc(-c2ccc(Cl)cc2)[nH]n1)C1CCCCC1 | SGK1 (Homo sapiens, UniProt O00141, S422D) | enzyme activity, Dundee kinase panel |  | 10 µM | remaining activity | 86%
